Results gathered from unrelated publications.
Numbered parts are unrelated; each lists some results of a single study. Values joined by “and” are separate records of one study, mostly repeats; a detail may differ. Substitutions count along the parent as printed.
Chain of UniProt Q8N568 (whole entry, looked up): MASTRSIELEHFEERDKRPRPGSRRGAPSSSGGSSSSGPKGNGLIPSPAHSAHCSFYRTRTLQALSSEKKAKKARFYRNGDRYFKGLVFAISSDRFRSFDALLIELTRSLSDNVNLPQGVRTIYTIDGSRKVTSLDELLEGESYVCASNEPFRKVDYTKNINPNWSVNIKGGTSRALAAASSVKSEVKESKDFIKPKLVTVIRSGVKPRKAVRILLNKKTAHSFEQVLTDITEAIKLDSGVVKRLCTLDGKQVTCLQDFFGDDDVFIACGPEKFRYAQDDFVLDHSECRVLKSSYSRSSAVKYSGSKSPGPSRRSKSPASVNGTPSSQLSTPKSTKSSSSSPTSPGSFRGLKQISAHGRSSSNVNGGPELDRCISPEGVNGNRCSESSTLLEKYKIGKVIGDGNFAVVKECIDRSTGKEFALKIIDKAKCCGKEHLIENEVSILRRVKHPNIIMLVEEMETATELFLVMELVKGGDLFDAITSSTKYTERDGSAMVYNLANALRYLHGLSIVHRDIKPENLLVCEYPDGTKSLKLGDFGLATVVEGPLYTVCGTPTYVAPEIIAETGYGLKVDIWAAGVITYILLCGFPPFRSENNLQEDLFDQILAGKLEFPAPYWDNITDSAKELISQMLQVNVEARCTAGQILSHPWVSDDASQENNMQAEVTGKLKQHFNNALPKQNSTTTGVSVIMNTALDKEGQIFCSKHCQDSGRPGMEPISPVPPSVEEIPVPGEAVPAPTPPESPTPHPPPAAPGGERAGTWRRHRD
Chain of UniProt P23975 (whole entry, looked up): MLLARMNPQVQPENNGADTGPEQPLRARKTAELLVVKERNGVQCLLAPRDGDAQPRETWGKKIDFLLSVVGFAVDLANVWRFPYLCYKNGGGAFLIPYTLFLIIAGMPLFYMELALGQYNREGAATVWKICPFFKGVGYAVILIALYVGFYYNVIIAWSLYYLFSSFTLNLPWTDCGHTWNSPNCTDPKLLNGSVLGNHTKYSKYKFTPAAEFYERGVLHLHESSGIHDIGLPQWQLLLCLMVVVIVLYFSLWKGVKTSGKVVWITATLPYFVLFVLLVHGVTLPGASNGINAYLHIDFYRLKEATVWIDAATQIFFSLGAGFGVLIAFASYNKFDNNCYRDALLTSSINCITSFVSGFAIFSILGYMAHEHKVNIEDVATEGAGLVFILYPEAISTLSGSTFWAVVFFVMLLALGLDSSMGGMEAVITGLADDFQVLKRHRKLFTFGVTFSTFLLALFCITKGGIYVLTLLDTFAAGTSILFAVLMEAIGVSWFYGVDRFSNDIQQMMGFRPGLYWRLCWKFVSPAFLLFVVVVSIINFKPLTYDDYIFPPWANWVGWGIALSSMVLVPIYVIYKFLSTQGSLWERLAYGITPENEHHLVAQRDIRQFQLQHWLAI
Chain of UniProt P61075 (whole entry, looked up): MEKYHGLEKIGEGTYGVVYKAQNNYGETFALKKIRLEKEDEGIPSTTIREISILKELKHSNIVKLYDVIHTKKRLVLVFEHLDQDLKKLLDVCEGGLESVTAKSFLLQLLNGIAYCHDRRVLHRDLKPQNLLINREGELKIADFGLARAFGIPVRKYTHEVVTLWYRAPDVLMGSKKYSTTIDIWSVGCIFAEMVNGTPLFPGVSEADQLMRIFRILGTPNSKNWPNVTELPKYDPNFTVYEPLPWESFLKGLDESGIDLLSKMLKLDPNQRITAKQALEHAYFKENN
Chain of UniProt P42681 (whole entry, looked up): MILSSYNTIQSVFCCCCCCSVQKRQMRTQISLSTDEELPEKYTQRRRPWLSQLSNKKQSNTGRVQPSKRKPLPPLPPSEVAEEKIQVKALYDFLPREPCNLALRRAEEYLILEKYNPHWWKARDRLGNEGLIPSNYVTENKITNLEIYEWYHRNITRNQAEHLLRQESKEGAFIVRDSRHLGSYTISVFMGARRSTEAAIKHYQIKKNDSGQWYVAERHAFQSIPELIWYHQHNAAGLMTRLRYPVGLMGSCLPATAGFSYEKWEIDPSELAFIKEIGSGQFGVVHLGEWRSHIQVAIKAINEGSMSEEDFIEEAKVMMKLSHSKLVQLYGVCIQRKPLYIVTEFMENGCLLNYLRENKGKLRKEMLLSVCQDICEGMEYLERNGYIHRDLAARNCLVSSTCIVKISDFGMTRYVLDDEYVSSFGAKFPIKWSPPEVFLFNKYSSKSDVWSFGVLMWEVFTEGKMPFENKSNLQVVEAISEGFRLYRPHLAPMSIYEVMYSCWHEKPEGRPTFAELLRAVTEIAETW
Chain of UniProt Q8N4C8 (whole entry, looked up): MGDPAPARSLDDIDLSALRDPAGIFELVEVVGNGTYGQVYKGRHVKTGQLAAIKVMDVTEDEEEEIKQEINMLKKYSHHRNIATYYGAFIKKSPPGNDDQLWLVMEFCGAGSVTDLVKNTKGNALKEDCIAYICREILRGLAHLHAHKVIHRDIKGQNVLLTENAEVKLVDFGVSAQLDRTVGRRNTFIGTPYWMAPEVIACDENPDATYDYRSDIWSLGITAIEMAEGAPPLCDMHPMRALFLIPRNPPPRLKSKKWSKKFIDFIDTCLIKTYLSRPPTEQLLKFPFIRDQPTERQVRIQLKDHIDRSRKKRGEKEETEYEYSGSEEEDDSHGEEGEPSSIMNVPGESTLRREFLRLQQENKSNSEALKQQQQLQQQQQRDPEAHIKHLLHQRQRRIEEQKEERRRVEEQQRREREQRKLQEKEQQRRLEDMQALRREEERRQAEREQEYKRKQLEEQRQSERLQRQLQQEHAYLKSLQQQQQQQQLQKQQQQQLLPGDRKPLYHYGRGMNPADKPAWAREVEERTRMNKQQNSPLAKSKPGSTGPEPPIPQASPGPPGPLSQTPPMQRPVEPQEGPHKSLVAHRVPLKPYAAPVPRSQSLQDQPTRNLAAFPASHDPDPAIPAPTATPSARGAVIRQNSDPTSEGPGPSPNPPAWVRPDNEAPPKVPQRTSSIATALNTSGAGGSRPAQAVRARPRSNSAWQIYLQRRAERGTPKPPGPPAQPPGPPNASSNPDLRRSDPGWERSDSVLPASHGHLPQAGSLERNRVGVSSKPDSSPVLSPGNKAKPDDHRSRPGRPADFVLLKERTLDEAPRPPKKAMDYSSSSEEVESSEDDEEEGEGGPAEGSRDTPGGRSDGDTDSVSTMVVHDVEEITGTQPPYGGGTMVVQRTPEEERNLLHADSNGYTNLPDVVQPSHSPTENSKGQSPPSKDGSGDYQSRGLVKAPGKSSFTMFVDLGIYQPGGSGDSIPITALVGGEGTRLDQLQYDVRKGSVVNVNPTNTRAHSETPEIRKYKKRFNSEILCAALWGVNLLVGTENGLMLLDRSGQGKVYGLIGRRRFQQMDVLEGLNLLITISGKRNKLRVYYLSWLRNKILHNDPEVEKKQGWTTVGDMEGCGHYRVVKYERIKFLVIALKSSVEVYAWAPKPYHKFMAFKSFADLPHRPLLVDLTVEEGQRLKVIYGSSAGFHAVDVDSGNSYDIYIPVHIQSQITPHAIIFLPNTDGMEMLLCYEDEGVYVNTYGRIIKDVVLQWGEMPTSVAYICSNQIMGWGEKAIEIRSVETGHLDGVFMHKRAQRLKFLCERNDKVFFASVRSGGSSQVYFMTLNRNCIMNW
Chain of UniProt Q6P2M8 (whole entry, looked up): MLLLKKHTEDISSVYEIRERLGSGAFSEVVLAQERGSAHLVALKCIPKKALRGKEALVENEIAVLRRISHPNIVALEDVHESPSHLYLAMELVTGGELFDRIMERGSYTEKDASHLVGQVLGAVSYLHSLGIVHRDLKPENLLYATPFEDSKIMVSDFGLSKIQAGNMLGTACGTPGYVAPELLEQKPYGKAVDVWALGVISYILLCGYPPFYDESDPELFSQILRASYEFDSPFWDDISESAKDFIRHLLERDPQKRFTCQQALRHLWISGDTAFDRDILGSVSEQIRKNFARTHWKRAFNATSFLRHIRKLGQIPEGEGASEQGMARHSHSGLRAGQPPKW
Chain of UniProt P28223 (whole entry, looked up): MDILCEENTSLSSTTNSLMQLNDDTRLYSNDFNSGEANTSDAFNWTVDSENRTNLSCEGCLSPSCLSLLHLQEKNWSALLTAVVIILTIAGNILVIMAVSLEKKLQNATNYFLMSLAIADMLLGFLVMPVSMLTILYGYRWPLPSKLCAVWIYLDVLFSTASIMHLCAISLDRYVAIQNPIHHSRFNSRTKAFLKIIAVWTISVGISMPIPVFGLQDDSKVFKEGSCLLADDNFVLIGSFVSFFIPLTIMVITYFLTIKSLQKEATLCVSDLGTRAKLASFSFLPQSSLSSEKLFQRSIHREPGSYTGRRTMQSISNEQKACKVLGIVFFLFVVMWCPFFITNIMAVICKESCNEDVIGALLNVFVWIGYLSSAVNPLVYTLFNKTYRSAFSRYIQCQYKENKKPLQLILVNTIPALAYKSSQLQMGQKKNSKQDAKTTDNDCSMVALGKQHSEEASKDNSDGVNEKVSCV

Study 1
SMILES: N/C(=N\[N+](=O)[O-])N/N=C\c1ccc(-c2cccc([N+](=O)[O-])c2)o1
Read-out: enzyme activity
Action: inhibitor
Tested at: 0.5 µM
Reference: control
target	remaining activity [%]
Tyrosine-protein kinase TXK (TXK, Homo sapiens, UniProt P42681)	98.3
Serine/threonine-protein kinase DCLK2 (DCLK2, Homo sapiens, UniProt Q8N568)	101
Misshapen-like kinase 1 (MINK1, Homo sapiens, UniProt Q8N4C8)	84.1
Calcium/calmodulin-dependent protein kinase type 1B (PNCK, Homo sapiens, UniProt Q6P2M8)	100

Study 2
Target: CCNE2, cyclin fold, Cln2 fusion (human)
Technique: yeast growth competition, sequencing
Medium: yeast
Setting: strong parent motif
Reference: not given
Direction: higher = stronger binding
Starting sequence: viral docking peptide; TSVRRALFTGGSD; partner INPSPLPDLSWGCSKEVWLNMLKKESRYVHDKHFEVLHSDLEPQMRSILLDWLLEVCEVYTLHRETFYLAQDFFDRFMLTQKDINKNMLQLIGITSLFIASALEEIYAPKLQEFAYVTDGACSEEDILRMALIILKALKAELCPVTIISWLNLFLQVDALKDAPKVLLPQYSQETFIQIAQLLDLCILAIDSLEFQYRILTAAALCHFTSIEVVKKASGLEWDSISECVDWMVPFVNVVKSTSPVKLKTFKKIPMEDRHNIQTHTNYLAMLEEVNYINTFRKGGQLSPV
Change	normalised enrichment score
R5E	-0.275
A6L	1.85
F8W	1.37
R5A	0.33
R4H	-0.118
G11Q	4.05
S12R	3.34
F8M	0.427

Further values, each from its own experiment
Compound	target or system	assay	setting	how to read	measurement	value
CN1CCN(c2cnc3c(C4CCN(C(=O)c5ccc(OC(F)(F)F)cc5N)CC4)ncnc3c2)CC1	Sodium-dependent noradrenaline transporter (SLC6A2, Homo sapiens, UniProt P23975)	ligand displacement	10 µM		inhibition	-17.2%
CCNC1=Nc2ccc(Cl)cc2C(C)(c2ccccc2)O1 (centres unmarked)	mouse MPNST tumor cells	high-content nuclear imaging, refers to: cell number	10 µM, 12 h, mean of 2 replicates	reference: plate mean, higher = more cells	nuclei count	-0.313 z-score
O=C1CCc2cc(Nc3cc(OC4CCOCC4)c([N+](=O)[O-])cc3Cl)ccc2N1	Cyclin-dependent kinase 2 homolog (CRK2, Plasmodium falciparum, UniProt P61075)	cell-free assay, competition with immobilised ligand	1 µM		remaining binding	100%
CC[C@@H](C(N)=O)N1CCCC1=O	mouse MPNST tumor cells	high-content nuclear imaging, refers to: cell number	10 µM, 12 h, mean of 2 replicates	reference: plate mean, higher = more cells	nuclei count	0.169 z-score and 0.181 z-score and 1.3 z-score
CCCOc1ccc([C@H]2[C@H](C(=O)O)[C@@H](c3ccc4c(c3)OCO4)CN2CC(=O)Nc2c(CC)cccc2CC)cc1	5-hydroxytryptamine receptor 2A (HTR2A, Homo sapiens, UniProt P28223)	cell-free assay	10 µM		inhibition	4.84%

Excerpt of the above (study 1):
target	remaining activity [%]
Misshapen-like kinase 1 (MINK1, Homo sapiens, UniProt Q8N4C8)	84.1
Tyrosine-protein kinase TXK (TXK, Homo sapiens, UniProt P42681)	98.3
